Measurements gathered from unrelated publications.
Protocols differ between the studies behind these lines. Numbers after ± are the reported error. In brackets after ≈: the same amount, converted by molar mass.

CC(=O)N[C@@H](CCCCN)C(=O)N[C@@H](CC(C)C)C(=O)N[C@@H](CC(=O)O)C(=O)N[C@@H](CC(C)C)C(=O)N[C@@H](CCCCN)C(=O)N[C@@H](CC(C)C)C(=O)N[C@@H](CC(=O)O)C(=O)N[C@@H](CC(C)C)C(=O)N[C@@H](CCCCN)C(=O)N[C@@H](CC(C)C)C(=O)N[C@@H](CC(=O)O)C(=O)N[C@@H](CC(C)C)C(N)=O
joint residence time (Sprague Dawley rat, knee OA model, synovial fluid; intra-articular): ≥ 6 weeks

C=C(C)[C@@H]1CC[C@]2(NCCN3CCS(=O)(=O)CC3)CC[C@]3(C)[C@H](CC[C@@H]4[C@@]5(C)CC=C(C6=CC[C@@](CF)(C(=O)O)CC6)C(C)(C)[C@@H]5CC[C@]43C)[C@@H]12
trough concentration (LC-MS/MS; HIV-1-infected treatment-naive adults, plasma; oral, 140 mg once daily, day 7, monotherapy): 800 ng/mL

Cc1c2c(n(-c3ccc(Cl)cc3Cl)c1-c1ccc(OS(=O)(=O)CCC(F)(F)F)cc1)CCN(N1CCCCC1)C2=O
plasma concentration (cynomolgus monkey 2, plasma; intravenous infusion, 0.3 mg/kg, 90 min, PET study midpoint): 143 nM

C[C@@H](Oc1ccc(S(C)(=O)=O)cc1C(=O)N1C[C@@H]2C[C@]2(c2cc(C(F)(F)F)on2)C1)C(F)(F)F
trough concentration (human male, plasma; oral, 5 mg once daily, 312 h): 66.7 nM

C[C@](N)(Cc1ccc(O)c(O)c1)C(=O)O
solubility (supercritical carbon dioxide; 5 h, 313 K, 15 MPa, density 781.2 kg/m3): 113 µg/mL (≈ 534 µM)

CC1(C)S[C@@H]2[C@H](NC(=O)[C@H](N)c3ccc(O)cc3)C(=O)N2[C@H]1C(=O)O
AUC (male ICR mouse, liver; oral, 3 mg/kg, 24 h): 18700 ng·h/mL

[2H]C([2H])([2H])Oc1cc2c(cc1OC([2H])([2H])[2H])C1CC(=O)C(CC(C)C)CN1CC2 (stereo not drawn)
dose-normalized Cmax (measured: deuterated β-HTBZ; healthy human volunteers, plasma; oral, 18 mg single dose, standard meal): 0.9 ng/mL

CCOc1ccc(Cc2cc([C@]34OC[C@](CO)(O3)[C@@H](O)[C@H](O)[C@H]4O)ccc2Cl)cc1
dose excreted unchanged (human, type 2 diabetes, moderate renal impairment, urine; oral, 15 mg, 0 to 96 h): 0.646%

CC/C(=C(\c1ccccc1)c1ccc(OCCN(C)C)cc1)c1ccccc1
AUC(0-24) (female breast cancer patients, plasma; dose-normalised to 20 mg, with: weak CYP2D6-inhibiting SSRI escitalopram or citalopram): 6.96 µM·h

COc1cccc2c1C(=O)c1c(O)c3c(c(O)c1C2=O)C[C@@](O)(C(C)=O)C[C@@H]3O[C@H]1C[C@H](N)[C@H](O)[C@H](C)O1
elimination half-life (Sprague-Dawley rat, plasma; intravenous, 5 mg/kg): 2.01 ± 1.12 h

COc1cccc2c1C(=O)c1c(O)c3c(c(O)c1C2=O)C[C@@](O)(C(=O)CO)C[C@@H]3O[C@H]1C[C@H](N)[C@H](O)[C@H](C)O1
AUC (mouse, E0771 tumour-bearing, plasma; intravenous, 92 µmol/kg): 11.3 µM·h

CCCCCCCCCCCCCNCC(=O)N(CC(=O)N(CCCCN)CC(=O)N(CCCCN)CC(=O)N(CC(N)=O)C1CCCCC1)C1CCCCC1
acetonitrile at elution (preparative RP-HPLC C18; water to acetonitrile gradient; 0.05% TFA in eluent; higher = more hydrophobic): 67.4%

COc1cc(Nc2ncc3c(n2)-c2ccc(Cl)cc2C(c2c(F)cccc2OC)=NC3)ccc1C(=O)O
trough concentration (children, UGT1A1 extensive metabolizers, plasma; oral, 80 mg/m2, day 4): 1010 ± 230 nM

CN(CCOc1ccc(CC2SC(=O)NC2=O)cc1)c1ccccn1 (stereo not drawn)
MRT(0-inf) (Sprague-Dawley rat, female, plasma; intraperitoneal, 5 mg/kg of dasatinib, with: dasatinib co-dosed): 3.14 ± 0.77 h

Cn1c(-c2ccc(C(N)=O)cc2F)nnc1C(C)(C)Oc1c(F)cc(Cl)cc1F
Cmax mean (young non-Japanese subjects, plasma; oral, 50 mg single dose, day 1): 491 ng/mL

C[N+]1(CC(=O)OC2CCCCCCCCCCC2)CCNCC1.[I-]
aqueous solubility (phosphate buffer with 2% DMSO; 90 min, pH 7.4, theoretical maximum 200 µM): 185 µM

C[C@H](Oc1ccc(-c2nc(-c3ccc4[nH]cnc4c3)no2)cc1C(F)(F)F)C(F)(F)F
plasma concentration (cynomolgus monkey, aneurysm model, plasma; 0.1 mg/kg once daily, 8 h post-dose, 2 weeks dosing): 13 ± 2.6 nM

C[C@@H](c1ncncc1F)[C@](O)(Cn1cncn1)c1ccc(F)cc1F
trough concentration (patients, hematological disorders, CYP2C19 PM with PPI, plasma; 200 mg, 12 h, steady state, median, combined score 5): 5830 ng/mL

O=C(O)CN(CC(=O)O)Cc1cc2c(cc1O)Oc1cc(O)c(CN(CC(=O)O)CC(=O)O)cc1C21OC(=O)c2ccccc21
permeation (FCS; POPS/POPC giant vesicles; 20 nM, 30 min, pH 7.4, no membrane potential): 17%

CNC(=O)c1cccc2cc(Oc3ccnc4cc(OCC5(N)CC5)c(OC)cc34)ccc12
Vss/F (human; oral, 10 mg, cycle 1 day 15, multiple dose, intermittent arm, geometric mean): 53.6 L

O=C1CCc2ncccc2C(=O)Nc2ccccc21
kinetic solubility (nephelometry; aqueous buffer; 30 min, pH 6.5): > 100 µg/mL

CCCC[C@@H]1NC(=O)[C@@H](NC(=O)[C@H](CCC(=O)O)NC(=O)CNC(=O)CN2CCN(CC(=O)O)CCN(CC(=O)O)CCN(CC(=O)O)CC2)CCCCNC(=O)C[C@@H](C(N)=O)NC(=O)[C@H](C(C)C)NC(=O)[C@@H]2CCCN2C(=O)[C@H](CCCNC(=N)N)NC(=O)CNC(=O)[C@H](Cc2c[nH]c3ccccc23)NC(=O)[C@H](CCCNC(=N)N)NC(=O)[C@@H](Cc2ccccc2)NC(=O)[C@H](Cc2c[nH]cn2)NC(=O)[C@H](CCC(=O)O)NC1=O [indium-111 labelled]
tissue uptake (C57 mice, B16/F10 lung metastatic melanoma, muscle; intravenous, 0.037 MBq, 4 h): 0.03 ± 0.02 %ID/g

CNC(=O)c1cc(Oc2ccc(NC(=O)Nc3ccc(Cl)c(C(F)(F)F)c3)cc2)ccn1
LVEF (echocardiography; human; oral, 400 mg twice daily, 39 days): 25%

Cc1c(CN2CCN(C(=O)[C@H](C)O)CC2)sc2c(N3CCOCC3)nc(-c3cnc(N)nc3)nc12
peripheral volume of distribution (V2/F) (patients, plasma; oral, dose not given, population PK model): 9.13 L/kg

C=CC(N)CCC(=O)O (stereo not drawn)
AUC(0-inf) (male Sprague-Dawley rat, plasma; oral, 1.0 mg/kg, formulation 6, with: BCH 200 mg/kg): 1840 ± 68 ng·h/mL

CN(C(=O)c1ccn2ncc(-c3ccc(C(N)=O)cc3)c2c1)c1ccc(C#N)cn1
hepatocyte CLint (metabolic stability; dog, hepatocytes): 0.6 µL/min/10⁶ cells

C[C@]12CC[C@@H]3c4ccc(OS(=O)(=O)O)cc4CC[C@H]3[C@@H]1CCC2=O
permeation rate constant (BME-UV cell monolayer): no effect

Cc1nc2cccc(OCC(C)(C)C(=O)NC(C)C)c2c(N)c1C(=O)O
excreted dose (Sprague-Dawley rat, both sexes, urine; oral, 10 mg/kg): 0.4%

CN[C@@H]1[C@H](O)[C@H](NC)[C@H]2O[C@]3(O)[C@H](O[C@@H]2[C@H]1O)O[C@H](C)C[C@H]3NC(=O)Cc1ccc(F)cn1
parent remaining (glutathione conjugation; human liver S9; 100 µM, 2 h, pH 7.4, with: glutathione 0.2 mM): 98.7%

CCN(CC)C(=O)[S+](C)[O-] (stereo not drawn)
oral clearance (CL/F) (human; oral): 0.595 L/h

O=C(/C=C/c1ccc(O)c(O)c1)O[C@H](Cc1ccc(O)c(O)c1)C(=O)O
MRT(0-inf) (UPLC-MS/MS; Wistar rat, microcirculation dysfunction model, plasma; oral, 100 mg/kg Salvia miltiorrhiza stem-leaf extract FT): 22.4 ± 29 h

COc1cc(Cc2cnc(N)nc2N)cc(OC)c1OC
solubility (shake flask; simulated gastric fluid; pH 1.2, acidic): 12900 µg/mL (≈ 44300 µM)

CCCOc1ccc([C@H]2CNC(=O)N2c2ccc3[nH]cnc3c2)cc1
AUC(0-12h) (human volunteers fasted, plasma; oral solution, 50 mg single dose, day 1, geometric mean): 346 ng·h/mL

N[C@@H]1CCN(c2nccc(-c3cnn4ncccc34)n2)C1
CLint (human liver microsomes): 40 µL/min/mg

C=CC(=O)Nc1cc(Nc2ncc(C(=O)OC(C)C)c(-c3cn(C)c4ccccc34)n2)c(OC)cc1N(C)CCN(C)C
AUC(0-t) (human, fasted; oral, 80 mg single dose, geometric mean): 250 ng·h/mL

c1ccc(CNc2nc(Nc3ccccc3)nc3ccccc23)cc1
maximum solubility (0.1 M sodium acetate with 0.01% Triton X-100; pH 5.5): 100 µM

N[C@]1(C(=O)O)[C@H]2[C@@H](C[C@@H]1F)[C@@H]2C(=O)O
AUC(0-24 h) (healthy subjects, both sexes, CSF; oral, 10 mg TS-134 single dose, fed, mean): 18.9 ng·h/mL

C=CC(=C)CCC1(C)C(C)CC(O)C23C(=CC(OC(=O)C(C)CC)CC12)C(OC(C)=O)OC3OC(C)=O (stereo not drawn)
haemolysis (haemolysis; 500 µM): 27.1%

COc1cc(/C=C/C(=O)CC(=O)/C=C/c2ccc(O)c(OC)c2)ccc1O
brain uptake ratio (I-125 label; C57BL/6J mouse, hippocampus; intranasal vs intraperitoneal, 10 µg/mouse IN, 100 µg/mouse IP, 4 h; reference: intranasal over intraperitoneal): 5.88

CC(C)c1nc(CN(C)C(=O)N[C@H](C(=O)N[C@@H](Cc2ccccc2)C[C@H](O)[C@H](Cc2ccccc2)NC(=O)OCc2cncs2)C(C)C)cs1
AUC(0-24) (HIV-infected patients, plasma; oral, 100 mg once daily, day 1, steady state, with: atazanavir 300 mg once daily): 14200 ng·h/mL

NCCCC[C@H](N)C(=O)O
Π (relative logD) (octanol/phosphate buffer; pH 7.0, N-4-nitrobenzoyl amino acid derivatives; reference: glycine derivative): -2.44 ± 0.02

Cc1nc(-c2ccc(OCC(C)C)c(C#N)c2)sc1C(=O)O
AUC(0-24) (adults with gout, plasma; oral, 40 mg, with: verinurad 2.5 mg): 2760 ng·h/mL

CS/C(S)=N/CCCC[S+](C)[O-] (racemic)
mRNA fold change (RT-PCR, measured: Cyp1a1; rat, mammary gland; oral gavage, 200 mg/kg, dosed for four days; reference: vehicle): 6.24

CCCC[C@H](NC(C)=O)C(=O)N[C@H]1CCC(=O)NC[C@@H](C(=O)N[C@@H](Cc2c[nH]c3ccccc23)C(N)=O)NC(=O)[C@H](CCCNC(=N)N)NC(=O)[C@@H](Cc2ccccc2)NC(=O)[C@H](Cc2c[nH]cn2)NC1=O
Vss/F (healthy human, both sexes, plasma; subcutaneous, 1.0 mg once daily, day 7, geometric mean): 191 L

C[C@]1(C(=O)O)CSC(c2ccc(OCCCCCCO)cc2O)=N1
urinary Kim-1 excretion (male Sprague-Dawley rats, urine; oral, 384 µmol/kg/day for 10 days): < 20 ng/kg/24 h

CCCS(=O)(=O)Nc1ccc(F)c(C(=O)c2c[nH]c3ncc(-c4ccc(Cl)cc4)cc23)c1F
unbound fraction in incubation (rapid equilibrium dialysis; 100% human plasma; 150 µM, 4 h): 9.4e-06 ± 2.7e-06

CN[C@H](CC(C)C)C(=O)N[C@H]1C(=O)N[C@@H](CC(N)=O)C(=O)N[C@H]2C(=O)N[C@H]3C(=O)N[C@H](C(=O)N[C@H](C(=O)O)c4cc(O)cc(O)c4-c4cc3ccc4O)[C@H](O)c3ccc(c(Cl)c3)Oc3cc2cc(c3O[C@@H]2O[C@H](CO)[C@@H](O)[C@H](O)[C@H]2O[C@H]2C[C@](C)(N)[C@H](O)[C@H](C)O2)Oc2ccc(cc2Cl)[C@H]1O
time above MIC (microdialysis; pig (Danish Landrace), cancellous bone; iv infusion, 1000 mg over 100 min, MIC 2.0 µg/mL, with: meropenem co-administered): 379 min

CC1(C)C2CCC1(C)C(OC(=O)C(O)Cc1ccc(O)c(O)c1)C2 (stereo not drawn)
Vd (Sprague-Dawley rat, plasma; intravenous, 6 mg/kg): 3.39 L/kg

C#C[C@]1(CO)O[C@@H](n2cnc3c(N)nc(F)nc32)C[C@@H]1O
AUC(0-t) (human, plasma; oral, 400 mg, single dose, fasted): 47.2 µM·h

CCN1CCN(c2cc3c(cc2F)c(=O)c(C(=O)O)cn3C2CC2)CC1
CL (broiler chickens Ross, plasma; intravenous and oral, population PK typical value): 13.8 mL/min

CS(=O)(=O)n1cc2c(n1)CN([C@H]1CO[C@H](c3cc(F)ccc3F)[C@@H](N)C1)C2
concentration at 168 h (healthy male human, plasma; oral, 100 mg once weekly, day 15, fasted, geometric mean): 61.1 nM

A few entries again:
CC1(C)S[C@@H]2[C@H](NC(=O)[C@H](N)c3ccc(O)cc3)C(=O)N2[C@H]1C(=O)O
AUC (male ICR mouse, liver; oral, 3 mg/kg, 24 h): 18700 ng·h/mL

[2H]C([2H])([2H])Oc1cc2c(cc1OC([2H])([2H])[2H])C1CC(=O)C(CC(C)C)CN1CC2 (stereo not drawn)
dose-normalized Cmax (measured: deuterated β-HTBZ; healthy human volunteers, plasma; oral, 18 mg single dose, standard meal): 0.9 ng/mL

CCOc1ccc(Cc2cc([C@]34OC[C@](CO)(O3)[C@@H](O)[C@H](O)[C@H]4O)ccc2Cl)cc1
dose excreted unchanged (human, type 2 diabetes, moderate renal impairment, urine; oral, 15 mg, 0 to 96 h): 0.646%

CC/C(=C(\c1ccccc1)c1ccc(OCCN(C)C)cc1)c1ccccc1
AUC(0-24) (female breast cancer patients, plasma; dose-normalised to 20 mg, with: weak CYP2D6-inhibiting SSRI escitalopram or citalopram): 6.96 µM·h

COc1cccc2c1C(=O)c1c(O)c3c(c(O)c1C2=O)C[C@@](O)(C(C)=O)C[C@@H]3O[C@H]1C[C@H](N)[C@H](O)[C@H](C)O1
elimination half-life (Sprague-Dawley rat, plasma; intravenous, 5 mg/kg): 2.01 ± 1.12 h
